Experimental data gathered from unrelated publications.
Lines come from different studies, so protocols differ. Numbers after ± are the reported error.
UCHL1: Ubiquitin carboxyl-terminal hydrolase isozyme L1 (UCHL1, Homo sapiens, UniProt P09936)
Sequence of UniProt P09936 (whole entry, looked up): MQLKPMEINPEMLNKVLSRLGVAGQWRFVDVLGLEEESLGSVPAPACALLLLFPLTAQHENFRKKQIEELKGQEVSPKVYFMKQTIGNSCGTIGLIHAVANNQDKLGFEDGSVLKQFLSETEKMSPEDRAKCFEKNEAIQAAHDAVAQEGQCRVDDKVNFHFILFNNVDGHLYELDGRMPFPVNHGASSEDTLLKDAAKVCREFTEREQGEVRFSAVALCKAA
Histone acetyltransferase RTT109 with Vps75: Histone acetyltransferase RTT109, with Vps75 (Saccharomyces cerevisiae, UniProt Q07794)
Sequence of UniProt Q07794 (whole entry, looked up): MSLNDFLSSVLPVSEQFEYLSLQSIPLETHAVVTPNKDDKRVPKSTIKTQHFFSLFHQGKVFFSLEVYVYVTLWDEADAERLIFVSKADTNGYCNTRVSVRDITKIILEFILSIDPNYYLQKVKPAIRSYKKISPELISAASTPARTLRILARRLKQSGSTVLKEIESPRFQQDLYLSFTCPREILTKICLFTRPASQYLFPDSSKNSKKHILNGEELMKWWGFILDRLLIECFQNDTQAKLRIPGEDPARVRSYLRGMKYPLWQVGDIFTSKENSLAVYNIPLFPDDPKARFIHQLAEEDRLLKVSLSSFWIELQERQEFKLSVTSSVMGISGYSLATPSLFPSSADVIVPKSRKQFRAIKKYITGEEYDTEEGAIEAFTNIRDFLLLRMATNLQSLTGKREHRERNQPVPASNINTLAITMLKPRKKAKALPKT
Sequence of UniProt P42680 (whole entry, looked up): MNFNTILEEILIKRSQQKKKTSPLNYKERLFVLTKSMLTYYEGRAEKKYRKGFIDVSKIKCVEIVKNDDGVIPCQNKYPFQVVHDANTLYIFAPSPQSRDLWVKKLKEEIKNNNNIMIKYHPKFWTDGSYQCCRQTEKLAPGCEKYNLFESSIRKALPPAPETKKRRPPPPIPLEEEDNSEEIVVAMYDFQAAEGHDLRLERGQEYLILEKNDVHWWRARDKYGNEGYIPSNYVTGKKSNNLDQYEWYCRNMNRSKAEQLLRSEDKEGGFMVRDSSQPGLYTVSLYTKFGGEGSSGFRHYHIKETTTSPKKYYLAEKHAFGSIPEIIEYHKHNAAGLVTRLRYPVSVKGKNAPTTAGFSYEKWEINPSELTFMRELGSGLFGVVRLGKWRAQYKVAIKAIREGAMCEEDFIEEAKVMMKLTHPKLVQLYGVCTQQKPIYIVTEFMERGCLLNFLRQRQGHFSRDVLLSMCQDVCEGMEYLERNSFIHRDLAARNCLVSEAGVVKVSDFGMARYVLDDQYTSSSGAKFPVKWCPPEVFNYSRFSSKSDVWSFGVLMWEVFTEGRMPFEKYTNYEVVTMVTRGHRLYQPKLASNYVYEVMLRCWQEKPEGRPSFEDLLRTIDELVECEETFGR
Sequence of UniProt P51575 (whole entry, unmodified, looked up): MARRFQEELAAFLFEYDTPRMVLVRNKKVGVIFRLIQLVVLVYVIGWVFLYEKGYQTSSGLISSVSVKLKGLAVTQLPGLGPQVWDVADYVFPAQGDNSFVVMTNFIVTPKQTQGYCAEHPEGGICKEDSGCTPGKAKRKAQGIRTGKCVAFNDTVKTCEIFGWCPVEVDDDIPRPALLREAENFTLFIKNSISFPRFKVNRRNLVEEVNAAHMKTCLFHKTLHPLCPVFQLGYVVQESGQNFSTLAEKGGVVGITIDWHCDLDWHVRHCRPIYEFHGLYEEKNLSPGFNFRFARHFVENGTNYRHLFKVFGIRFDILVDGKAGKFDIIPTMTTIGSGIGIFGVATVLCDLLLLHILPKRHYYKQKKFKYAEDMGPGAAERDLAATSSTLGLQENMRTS
Sequence of UniProt P61823 (whole entry, looked up): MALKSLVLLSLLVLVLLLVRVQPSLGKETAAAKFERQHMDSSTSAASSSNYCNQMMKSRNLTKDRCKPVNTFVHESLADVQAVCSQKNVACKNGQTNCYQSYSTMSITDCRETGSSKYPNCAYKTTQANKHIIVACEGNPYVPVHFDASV
Sequence of UniProt Q8BHY3 (whole entry, unmodified, looked up): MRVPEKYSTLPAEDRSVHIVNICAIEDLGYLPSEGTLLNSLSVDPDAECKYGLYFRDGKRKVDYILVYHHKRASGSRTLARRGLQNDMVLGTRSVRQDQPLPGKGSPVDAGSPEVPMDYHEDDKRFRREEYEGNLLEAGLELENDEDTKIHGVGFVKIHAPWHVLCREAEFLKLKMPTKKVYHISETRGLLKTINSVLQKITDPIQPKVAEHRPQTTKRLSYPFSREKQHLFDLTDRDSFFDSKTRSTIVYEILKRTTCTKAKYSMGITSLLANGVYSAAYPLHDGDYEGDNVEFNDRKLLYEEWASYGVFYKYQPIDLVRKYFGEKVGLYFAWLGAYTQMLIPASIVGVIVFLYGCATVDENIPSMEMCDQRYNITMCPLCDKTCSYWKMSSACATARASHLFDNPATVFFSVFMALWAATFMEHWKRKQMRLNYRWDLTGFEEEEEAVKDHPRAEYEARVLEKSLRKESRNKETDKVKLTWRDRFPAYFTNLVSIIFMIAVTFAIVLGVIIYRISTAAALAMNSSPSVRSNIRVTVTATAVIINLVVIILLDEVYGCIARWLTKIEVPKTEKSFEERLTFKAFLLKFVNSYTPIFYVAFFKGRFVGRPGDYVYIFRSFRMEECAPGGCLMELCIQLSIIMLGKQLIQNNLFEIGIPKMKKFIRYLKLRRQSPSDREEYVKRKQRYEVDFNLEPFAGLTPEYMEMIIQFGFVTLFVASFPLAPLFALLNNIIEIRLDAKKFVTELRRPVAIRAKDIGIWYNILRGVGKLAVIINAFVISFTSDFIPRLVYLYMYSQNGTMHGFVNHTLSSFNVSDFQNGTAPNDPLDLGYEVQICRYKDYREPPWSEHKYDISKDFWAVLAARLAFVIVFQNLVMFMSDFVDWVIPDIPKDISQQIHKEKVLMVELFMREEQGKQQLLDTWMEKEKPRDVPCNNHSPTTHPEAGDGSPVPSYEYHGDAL

Compound | tested on | assay | system | conditions | how to read | endpoint | result
N#CC(=Cc1cccc2c1OCO2)C(=O)Nc1cccc2ccccc12 | UCHL1 | covalent, intact protein LC-MS |  | 12.5 µM |  | labelling | 33.9%
Nc1ncnc2c1ncn2[C@@H]1O[C@H](COP(=O)(O)OP(=O)(O)OP(=O)(O)O)[C@@H](O)[C@H]1O | P2X purinoceptor 1 (P2RX1, Homo sapiens, UniProt P51575, K136E/K138D/K140L) | ion current, agonist, two-electrode voltage clamp |  | 3 |  | EC50 | 3.49 µM
O=C(CS(=O)(=O)c1cccc2nsnc12)Nc1cccc(Br)c1 | Histone acetyltransferase RTT109 with Vps75 | enzyme activity, inhibitor, HTS, CPM-based, dose response |  |  |  | IC50 | > 125 µM
Cc1ccc(-c2csc(NC(=O)CCl)n2)cc1C | UCHL1 | covalent, intact protein LC-MS |  | 12.5 µM |  | labelling | 6.31%
N=C(N/N=C/c1ccc2c(c1)OCO2)SC1CC(=O)N(c2ccc(Br)cc2)C1=O (stereo not drawn) | Histone acetyltransferase RTT109 with Vps75 | enzyme activity, inhibitor, HTS, CPM-based, dose response |  |  |  | IC50 | > 125 µM
O=C(Nc1ccc([N+](=O)[O-])cc1Cl)c1cc(Cl)ccc1O | Anoctamin-1 (Ano1, Mus musculus, UniProt Q8BHY3, F781A) | chloride current, whole-cell patch clamp | HEK-293T TMEM16F knockout |  |  | EC50 | 3.07 ± 0.75 µM
CC[C@H](C)[C@H](NC(=O)[C@H](Cc1ccc(OP(=O)(O)O)cc1)NC(=O)[C@H](CC(N)=O)NC(=O)[C@H](CC(C)C)NC(=O)[C@@H](N)CO)C(=O)N[C@@H](CC(=O)O)C(=O)N[C@@H](CC(C)C)C(=O)N[C@@H](CC(=O)O)C(=O)N[C@@H](CC(C)C)C(=O)N[C@H](C(=O)N[C@@H](CCCCN)C(=O)O)C(C)C | Tyrosine-protein phosphatase non-receptor type 11 (PTPN11, Homo sapiens, UniProt Q06124, E249R/S502P) | enzyme activity, activator |  | pH 7.0, 2% DMSO, added: DiFMUP 100 µM, phosphopeptide |  | EC50 | 2 ± 0.5 µM
Nc1ccn([C@@H]2O[C@H](COP(=O)(O)OP(=O)(O)O)[C@@H](O)[C@H]2O)c(=O)n1 | Ribonuclease pancreatic (RNASE1, Bos taurus, UniProt P61823) | binding, native MS titration |  |  |  | Kd | 4.1 ± 0.2 µM
COc1cc(Nc2ncc3c(n2)-c2ccc(Cl)cc2C(c2c(F)cccc2OC)=NC3)ccc1C(=O)NCCOCCOCCNC(=O)COc1cccc2c1C(=O)N(C1CCC(=O)NC1=O)C2=O (stereo not drawn) | Tyrosine-protein kinase Tec (TEC, Homo sapiens, UniProt P42680) | binding, kinobead competition | MV4-11 cell lysate |  |  | EC50 | > 30 µM
CC(=O)OC[C@H]1O[C@@H]([S-])[C@H](OC(C)=O)[C@@H](OC(C)=O)[C@@H]1OC(C)=O.CCP(CC)CC.[Au+] | Toxoplasma gondii | tachyzoite growth, luciferase | ME49-Fluc, type II |  |  | EC50 | 1.12 µM
COc1cccc(Nc2nc(NCC3CCCO3)c3ccccc3n2)c1.Cl (stereo not drawn) | Trypanosoma cruzi | reporter translation, Renilla luciferase mRNA translation | cell-free extract | 40 µM | relative to: DMSO | inhibition | 23.1%
O=S1(=O)C=C(Sc2nc3ccccc3o2)c2ccccc21 | Histone acetyltransferase RTT109 with Vps75 | enzyme activity, inhibitor, HTS, CPM-based, dose response |  |  |  | IC50 | > 125 µM

A few entries again:
Compound | tested on | assay | system | conditions | how to read | endpoint | result
O=C(Nc1ccc([N+](=O)[O-])cc1Cl)c1cc(Cl)ccc1O | Anoctamin-1 (Ano1, Mus musculus, UniProt Q8BHY3, F781A) | chloride current, whole-cell patch clamp | HEK-293T TMEM16F knockout |  |  | EC50 | 3.07 ± 0.75 µM
N=C(N/N=C/c1ccc2c(c1)OCO2)SC1CC(=O)N(c2ccc(Br)cc2)C1=O (stereo not drawn) | Histone acetyltransferase RTT109 with Vps75 | enzyme activity, inhibitor, HTS, CPM-based, dose response |  |  |  | IC50 | > 125 µM
